Experimental data collected from several papers.
Parts stem from different laboratories: compare values within a part only.

Series 1
Target: Histone acetyltransferase KAT6A, both winged helices, GST fusion (KAT6A, Homo sapiens, UniProt Q92794, residues 1-181)
Method: protein binding microarray
Form: double-stranded DNA, one strand shown
Sample: in vitro
Tested at: not given
Setting: 8-mer, flanks averaged, mean of 2 arrays, mostly near background
Relative to: not given
Direction: higher = stronger binding
Target sequence (chain): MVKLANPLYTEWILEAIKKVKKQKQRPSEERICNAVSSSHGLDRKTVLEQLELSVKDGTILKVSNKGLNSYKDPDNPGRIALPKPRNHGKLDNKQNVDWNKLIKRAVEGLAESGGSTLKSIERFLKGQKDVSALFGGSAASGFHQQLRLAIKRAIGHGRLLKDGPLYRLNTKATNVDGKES
| Strand | E-score |
| --- | --- |
| CGACGGCA | 0.285 |
| ATTAACTA | -0.0589 |
| CATTGGGG | -0.182 |
| GCAAAACA | -0.0387 |
| ATCAAGAC | 0.00297 |
| GCCTCGCA | 0.00356 |
| TCACAGGA | -0.169 |
| AGATCTAA | -0.0605 |
| ACATTGTC | 0.0802 |
| ACTGCTAA | -0.238 |
| AATCCTCG | -0.249 |
| TATTCACA | 0.0382 |
| CCGCGAGC | 0.339 |
| AACCGTGA | 0.11 |
| TGAAACAA | -0.108 |
| ACAGCCTG | -0.113 |
| ATGACGAG | -0.00245 |
| CTGATTTA | -0.123 |
| AGCGCTAA | 0.338 |
| GTCACGAC | -0.0677 |
| TTCCCCAA | -0.2 |
| GGGGGGAC | -0.202 |
| GCTTAGAA | -0.00711 |
| GGTCGACC | 0.279 |
| ACCTGTTA | -0.0881 |

Series 2
Target: Sal-like protein 4, full length isoform A (SALL4, Homo sapiens, UniProt Q9UJQ4, residues 1-1053)
UniProt Q9UJQ4, sequence (whole entry, looked up): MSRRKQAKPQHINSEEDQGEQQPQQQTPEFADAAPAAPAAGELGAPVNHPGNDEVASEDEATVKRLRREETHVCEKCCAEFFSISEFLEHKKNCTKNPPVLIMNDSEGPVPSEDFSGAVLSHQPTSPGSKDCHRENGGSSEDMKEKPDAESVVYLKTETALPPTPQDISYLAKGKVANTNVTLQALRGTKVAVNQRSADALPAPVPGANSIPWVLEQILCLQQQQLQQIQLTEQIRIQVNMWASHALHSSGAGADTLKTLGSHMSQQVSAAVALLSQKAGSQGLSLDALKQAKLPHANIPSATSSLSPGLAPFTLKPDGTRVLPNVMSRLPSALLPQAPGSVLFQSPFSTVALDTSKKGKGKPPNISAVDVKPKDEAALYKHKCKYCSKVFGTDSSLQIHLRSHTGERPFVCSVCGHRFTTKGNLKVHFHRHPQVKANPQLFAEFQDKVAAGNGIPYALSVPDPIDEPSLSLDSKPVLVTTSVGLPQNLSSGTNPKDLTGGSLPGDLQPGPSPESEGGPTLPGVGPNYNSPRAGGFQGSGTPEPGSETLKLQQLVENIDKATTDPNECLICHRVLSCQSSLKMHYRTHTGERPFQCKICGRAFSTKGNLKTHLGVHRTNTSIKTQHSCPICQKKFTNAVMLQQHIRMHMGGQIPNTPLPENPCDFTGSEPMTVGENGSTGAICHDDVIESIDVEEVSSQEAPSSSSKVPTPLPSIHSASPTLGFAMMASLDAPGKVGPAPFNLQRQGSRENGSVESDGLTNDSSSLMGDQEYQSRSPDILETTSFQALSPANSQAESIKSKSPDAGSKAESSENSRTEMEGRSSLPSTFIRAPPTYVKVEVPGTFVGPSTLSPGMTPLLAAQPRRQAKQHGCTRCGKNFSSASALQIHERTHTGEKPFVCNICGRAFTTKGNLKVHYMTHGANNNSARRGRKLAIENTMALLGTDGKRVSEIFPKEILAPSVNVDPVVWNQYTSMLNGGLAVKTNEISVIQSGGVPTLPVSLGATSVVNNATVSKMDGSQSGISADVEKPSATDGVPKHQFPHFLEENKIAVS
Method: universal PBM
Form: double-stranded DNA, one strand shown
Sample: in vitro
Tested at: 600 nM
Setting: 8-mer, flanks averaged, mean of replicates
Direction: higher = stronger binding
| Strand | E-score |
| --- | --- |
| CACTACTG | -0.0556 |
| TGCCAAAA | 0.0862 |
| AATAACCG | 0.214 |
| AACGTCAG | -0.0763 |
| AAAATTAG | 0.266 |
| GACACTCC | -0.156 |
| CGGAGTTC | -0.164 |
| AGCTGGCG | -0.36 |
| GACTGATA | 0.0461 |
| TAAAGAGA | 0.0761 |
| CTTGTGTA | 0.172 |
| ATGCTGAG | -0.242 |
| AATTACCG | 0.0986 |
| ATTTTTAC | 0.392 |
| AGCCCTGC | -0.316 |
| ACAGGACA | -0.0667 |
| CGGAGTAC | -0.186 |
| GAGTAACC | -0.0756 |
| CCTAACAC | -0.0214 |
| CATGCAAG | -0.0218 |
| CCCTTCAG | -0.168 |

Series 3
Target: Prothrombin, mature alpha-thrombin (F2, Homo sapiens, UniProt P00734)
Method: aptamer microarray, sandwich
Form: DNA with 2'F-ANA
Sample: in vitro
Tested at: 200 nM
Setting: whole 15-mer aptamer, many near background
Added: Cy3 exosite-II aptamer, 400 nM
Direction: higher = stronger binding
Strand: GGTTGGTGTGGTTGG
| Modification | mean fluorescence intensity [a.u.] |
| --- | --- |
| 2'F-ANA at 2 4 7 8 10 11 13 15 | 81.6 |
| 2'F-ANA at 1 2 10 14 15 | 58.2 |
| 2'F-ANA at 2 3 4 6 8 9 10 12 14 15 | 156 |
| 2'F-ANA at 1 2 4 7 8 9 14 15 | 54.8 |
| 2'F-ANA at 2 5 6 7 8 9 10 | 46.1 |
| 2'F-ANA at 6 8 9 10 11 12 13 14 | 103 |
| 2'F-ANA at 1 5 7 9 10 11 | 57.5 |
| 2'F-ANA at 1 2 4 5 6 8 12 | 110 |
| 2'F-ANA at 1 3 5 6 7 9 10 11 12 15 | 64.3 |
| 2'F-ANA at 1 2 4 5 7 8 10 12 15 | 70.5 |
| 2'F-ANA at 1 2 6 7 9 11 12 13 14 | 58.8 |
| 2'F-ANA at 2 3 4 5 6 7 8 9 14 15 | 114 |
| 2'F-ANA at 3 6 7 8 9 11 12 13 14 | 564 |
| 2'F-ANA at 3 4 5 8 9 11 12 | 201 |
| 2'F-ANA at 2 4 5 7 12 15 | 137 |
| 2'F-ANA at 2 3 4 7 9 10 12 | 354 |
| 2'F-ANA at 3 6 7 9 10 11 12 14 | 384 |
| 2'F-ANA at 1 2 3 7 8 9 10 11 12 | 94.6 |
| 2'F-ANA at 1 2 3 4 7 9 14 15 | 66.9 |
| 2'F-ANA at 2 3 4 5 7 8 10 11 12 14 | 52.2 |
| 2'F-ANA at 1 4 12 13 14 | 56.9 |
| 2'F-ANA at 7 11 13 14 15 | 220 |
| 2'F-ANA at 2 3 11 12 15 | 940 |
| 2'F-ANA at 1 5 7 8 9 10 12 15 | 52.7 |
| 2'F-ANA at 1 2 4 12 13 | 210 |

Series 4
Target: Phosphate system positive regulatory protein PHO4, full length, GST-tagged (PHO4, Saccharomyces cerevisiae, UniProt P07270, residues 1-312)
Method: competition protein-binding microarray
Form: double-stranded DNA, one strand shown
Sample: in vitro
Tested at: 2 µM
Setting: whole 60-bp probe, lowest competitor level
Added: Cbf1 competitor, 0.05 µM
Direction: higher = stronger binding
Shared flanks, not repeated: … GTCTTGATTCGCTTGACGCTGCTG
Residues (chain): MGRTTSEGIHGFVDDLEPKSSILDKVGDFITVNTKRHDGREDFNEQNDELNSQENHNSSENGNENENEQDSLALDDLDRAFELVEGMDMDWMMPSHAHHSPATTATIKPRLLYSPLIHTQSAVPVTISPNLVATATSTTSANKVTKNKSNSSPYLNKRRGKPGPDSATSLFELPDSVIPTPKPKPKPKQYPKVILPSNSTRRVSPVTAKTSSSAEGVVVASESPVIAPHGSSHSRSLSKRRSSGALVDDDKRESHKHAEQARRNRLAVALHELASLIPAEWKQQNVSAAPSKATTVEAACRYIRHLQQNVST
| Strand | fluorescence intensity [a.u.] |
| --- | --- |
| AGGAAAAGCCAAGATCATAAGCAAGAAAGTTATCCT | 2380 |
| TGCGCAACAACTTGTCACGCTACTTTATGTCTAGAA | 5170 |
| AAAGCGGTAATTTTTCACGTGTTCTCACATATCTAT | 13500 |
| GAGCCCTCTGTATTTCATGTGACGGGAGTGTAATTT | 4010 |
| CTTTCCCGATCTTGTCACCGAACTTTAGCACATTTG | 3910 |
| CAGATCTTATAAGGGTTCGTGATGGTCCTGAATCGA | 4340 |
| CTTCTGTAAATTTACCACGTGTTTTGACGCGCCCCG | 17700 |
| TTGGAGTGGAACCCTCCCGTGTGGAAAACATATTTT | 4310 |
| GAATTGGTAGAACTGGTCGTGCCAGTAACACCGGTC | 5460 |
| CTTCTGCTATGGATGCACGTGAACGCTCTATTCAAC | 16200 |
| ATATTATCTTGCGAGCATGTGCGCTCAATTTCGGGG | 10600 |
| CCCCCAACTGACACACACGTGAGACCCTGCTGAAAG | 14900 |
| CTTCTGTAAATTTGGCGGGTGGGTGGACGCGCCCCG | 5300 |
| ATTCGTCAATGAAGGCACATGGGGCGGTAGGGTTCG | 12400 |
| CTGGAATGGCTCGGCCACATGGGTGGGATTACCCGC | 8980 |
| TCACAGTATTTTTTTCACGTGCTTTTTTTTCAAGGC | 15700 |
| CTTCTGTAAATTTGTCCCGTGGGTGGACGCGCCCCG | 9700 |
| CATTAGTTTTTTACCTGTGTGACGGTTATACATAAC | 4920 |
| CCTTTTGGTCTTCAACACGTTCAGCCTTGATTTCCT | 10800 |
